{"data": "Published values of several laboratories", "note": "Parts stem from different laboratories: compare values within a part only.", "UniProt Q15303, sequence (whole entry, looked up)": "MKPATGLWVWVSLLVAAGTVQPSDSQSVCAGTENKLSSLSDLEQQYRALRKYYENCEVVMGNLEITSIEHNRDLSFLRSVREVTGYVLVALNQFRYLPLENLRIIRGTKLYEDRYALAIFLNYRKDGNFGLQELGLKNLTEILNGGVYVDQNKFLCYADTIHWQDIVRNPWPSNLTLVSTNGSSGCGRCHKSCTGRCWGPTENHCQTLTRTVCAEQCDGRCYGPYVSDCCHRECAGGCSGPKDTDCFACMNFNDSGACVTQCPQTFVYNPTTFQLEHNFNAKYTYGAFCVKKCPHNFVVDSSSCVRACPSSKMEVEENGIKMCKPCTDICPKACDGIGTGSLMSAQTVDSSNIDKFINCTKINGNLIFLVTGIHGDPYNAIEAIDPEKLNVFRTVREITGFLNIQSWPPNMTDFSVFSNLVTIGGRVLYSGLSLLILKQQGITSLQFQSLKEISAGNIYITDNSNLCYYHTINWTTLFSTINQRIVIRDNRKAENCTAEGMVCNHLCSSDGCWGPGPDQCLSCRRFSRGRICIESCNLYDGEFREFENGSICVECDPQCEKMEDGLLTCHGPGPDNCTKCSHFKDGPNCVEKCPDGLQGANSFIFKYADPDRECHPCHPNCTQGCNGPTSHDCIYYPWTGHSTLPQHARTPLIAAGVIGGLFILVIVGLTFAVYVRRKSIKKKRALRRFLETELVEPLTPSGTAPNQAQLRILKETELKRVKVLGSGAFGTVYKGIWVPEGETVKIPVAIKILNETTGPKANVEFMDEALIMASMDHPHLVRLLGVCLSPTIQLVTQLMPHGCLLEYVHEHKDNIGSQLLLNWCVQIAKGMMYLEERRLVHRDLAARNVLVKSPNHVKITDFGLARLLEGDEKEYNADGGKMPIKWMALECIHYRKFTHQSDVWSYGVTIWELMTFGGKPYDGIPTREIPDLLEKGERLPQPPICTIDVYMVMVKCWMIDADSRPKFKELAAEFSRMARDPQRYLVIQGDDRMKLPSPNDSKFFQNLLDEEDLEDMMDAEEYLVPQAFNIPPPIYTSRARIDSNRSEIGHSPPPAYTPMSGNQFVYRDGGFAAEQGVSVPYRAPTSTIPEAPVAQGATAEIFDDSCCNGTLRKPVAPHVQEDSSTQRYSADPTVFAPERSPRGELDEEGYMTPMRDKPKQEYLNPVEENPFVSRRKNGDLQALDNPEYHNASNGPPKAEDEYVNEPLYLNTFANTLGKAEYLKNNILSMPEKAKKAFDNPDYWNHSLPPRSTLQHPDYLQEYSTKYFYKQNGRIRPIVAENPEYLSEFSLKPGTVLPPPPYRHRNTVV", "UniProt Q8IW41, sequence (whole entry, looked up)": "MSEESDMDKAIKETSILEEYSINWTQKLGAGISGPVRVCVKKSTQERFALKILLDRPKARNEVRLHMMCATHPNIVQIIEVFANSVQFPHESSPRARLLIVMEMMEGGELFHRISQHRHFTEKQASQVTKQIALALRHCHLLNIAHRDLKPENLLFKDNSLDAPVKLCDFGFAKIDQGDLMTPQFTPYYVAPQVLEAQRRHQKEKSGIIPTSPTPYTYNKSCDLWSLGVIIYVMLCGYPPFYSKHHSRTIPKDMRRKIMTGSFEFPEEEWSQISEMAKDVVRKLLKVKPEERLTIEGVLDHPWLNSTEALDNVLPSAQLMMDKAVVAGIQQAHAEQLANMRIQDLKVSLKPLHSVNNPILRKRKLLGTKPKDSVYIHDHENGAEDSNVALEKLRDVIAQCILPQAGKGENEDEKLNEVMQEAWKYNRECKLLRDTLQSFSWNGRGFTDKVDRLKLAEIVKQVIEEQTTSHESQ", "UniProt P27037, sequence (whole entry, looked up)": "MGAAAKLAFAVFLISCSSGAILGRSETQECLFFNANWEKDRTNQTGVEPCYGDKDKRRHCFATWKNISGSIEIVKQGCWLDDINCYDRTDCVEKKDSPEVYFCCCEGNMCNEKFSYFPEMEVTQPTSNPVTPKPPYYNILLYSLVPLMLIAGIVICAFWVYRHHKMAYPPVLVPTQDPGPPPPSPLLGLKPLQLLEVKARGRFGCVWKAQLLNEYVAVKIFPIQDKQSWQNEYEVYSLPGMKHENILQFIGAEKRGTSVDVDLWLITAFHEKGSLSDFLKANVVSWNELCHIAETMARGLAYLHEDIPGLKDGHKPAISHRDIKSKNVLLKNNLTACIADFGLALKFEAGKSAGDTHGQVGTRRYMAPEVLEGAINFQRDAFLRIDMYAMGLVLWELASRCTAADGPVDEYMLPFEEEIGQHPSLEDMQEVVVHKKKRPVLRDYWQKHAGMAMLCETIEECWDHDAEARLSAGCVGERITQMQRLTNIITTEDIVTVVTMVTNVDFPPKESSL", "UniProt Q8NEB9, sequence (whole entry, looked up)": "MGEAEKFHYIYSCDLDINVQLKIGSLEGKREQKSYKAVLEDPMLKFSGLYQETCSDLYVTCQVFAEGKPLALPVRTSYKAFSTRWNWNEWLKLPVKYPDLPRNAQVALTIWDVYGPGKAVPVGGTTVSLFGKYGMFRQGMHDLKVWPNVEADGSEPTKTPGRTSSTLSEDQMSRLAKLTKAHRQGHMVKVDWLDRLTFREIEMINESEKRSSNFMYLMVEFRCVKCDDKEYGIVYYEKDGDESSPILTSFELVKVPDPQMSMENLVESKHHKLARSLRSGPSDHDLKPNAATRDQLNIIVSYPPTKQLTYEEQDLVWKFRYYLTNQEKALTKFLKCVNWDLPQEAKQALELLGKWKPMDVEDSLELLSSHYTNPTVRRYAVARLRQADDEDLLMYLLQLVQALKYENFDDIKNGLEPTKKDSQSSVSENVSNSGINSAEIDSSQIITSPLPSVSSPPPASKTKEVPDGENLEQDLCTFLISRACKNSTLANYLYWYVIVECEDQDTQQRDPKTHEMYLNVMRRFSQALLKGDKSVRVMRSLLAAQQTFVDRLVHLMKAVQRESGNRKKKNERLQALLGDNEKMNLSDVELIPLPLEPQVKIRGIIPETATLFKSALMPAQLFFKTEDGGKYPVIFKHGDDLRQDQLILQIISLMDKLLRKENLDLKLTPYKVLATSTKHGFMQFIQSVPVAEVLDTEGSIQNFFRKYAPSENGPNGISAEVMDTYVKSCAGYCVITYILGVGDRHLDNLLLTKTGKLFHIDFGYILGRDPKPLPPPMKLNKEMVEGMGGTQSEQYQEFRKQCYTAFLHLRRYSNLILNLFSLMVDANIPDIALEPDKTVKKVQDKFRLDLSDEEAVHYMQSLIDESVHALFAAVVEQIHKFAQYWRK", "UniProt Q8WU08, sequence (whole entry, looked up)": "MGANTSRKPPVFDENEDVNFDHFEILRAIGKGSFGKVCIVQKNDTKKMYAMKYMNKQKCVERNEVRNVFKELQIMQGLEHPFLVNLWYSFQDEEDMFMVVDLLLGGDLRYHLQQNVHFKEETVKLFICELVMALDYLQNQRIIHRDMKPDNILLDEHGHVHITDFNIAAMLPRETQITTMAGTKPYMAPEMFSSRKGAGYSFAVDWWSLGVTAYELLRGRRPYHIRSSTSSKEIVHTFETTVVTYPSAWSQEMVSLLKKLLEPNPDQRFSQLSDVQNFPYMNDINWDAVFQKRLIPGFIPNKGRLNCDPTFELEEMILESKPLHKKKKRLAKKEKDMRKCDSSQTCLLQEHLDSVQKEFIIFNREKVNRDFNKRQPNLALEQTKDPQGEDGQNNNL", "UniProt P52564, sequence (whole entry, looked up)": "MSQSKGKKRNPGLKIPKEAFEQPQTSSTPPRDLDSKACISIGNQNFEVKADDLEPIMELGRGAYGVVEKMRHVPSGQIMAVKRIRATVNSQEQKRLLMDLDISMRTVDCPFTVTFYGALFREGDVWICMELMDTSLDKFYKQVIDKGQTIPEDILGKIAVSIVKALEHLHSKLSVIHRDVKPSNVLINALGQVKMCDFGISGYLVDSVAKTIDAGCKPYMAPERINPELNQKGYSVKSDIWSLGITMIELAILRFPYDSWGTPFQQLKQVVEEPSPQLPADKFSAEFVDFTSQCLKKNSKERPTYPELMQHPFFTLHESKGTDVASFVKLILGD", "UniProt Q8TDX7, sequence (whole entry, looked up)": "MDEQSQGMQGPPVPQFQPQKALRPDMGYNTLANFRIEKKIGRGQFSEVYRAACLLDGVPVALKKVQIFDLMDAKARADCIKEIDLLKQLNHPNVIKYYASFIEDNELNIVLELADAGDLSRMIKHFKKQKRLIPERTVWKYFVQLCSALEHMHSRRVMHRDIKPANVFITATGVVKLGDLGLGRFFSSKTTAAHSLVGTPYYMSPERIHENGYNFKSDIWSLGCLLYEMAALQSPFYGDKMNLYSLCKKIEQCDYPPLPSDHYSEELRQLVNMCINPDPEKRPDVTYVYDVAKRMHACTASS"}
{"data": "Set 1", "organism": "Saccharomyces cerevisiae", "observed": "binding", "method": "yeast competitive growth sequencing", "molecule type": "peptide", "notes": "cyclin B2-Cln2 chimera", "direction": "direction not given"}
{"Molecule": "NARRSLNFGGSTGT", "enrichment score": -0.315}
{"Molecule": "NLEPNAEFDKRTEFIT", "enrichment score": 0.516}
{"Molecule": "SGYLTDENEVGFRG", "enrichment score": 1.09}
{"Molecule": "ALTMEALEDPSPELME", "enrichment score": 1.71}
{"Molecule": "VRDLSYRLVFLACCVA", "enrichment score": -0.216}
{"Molecule": "ELGMEHCEKFEISETS", "enrichment score": 0.105}
{"Molecule": "RNRGPKLNAMLRLGVL", "enrichment score": -1.22}
{"Molecule": "DSGFCLDSPGPLDSKE", "enrichment score": 0.124}
{"data": "Set 2", "SMILES": "CCOCCn1cc(C(=O)Nc2ccc(-n3nc(-c4cccnc4)cc3C(F)(F)F)cn2)ccc1=O", "observed": "cell-free assay", "method": "competition with immobilised ligand", "concentration": "1 µM"}
{"target": "MAP kinase-activated protein kinase 5 (MAPKAPK5, Homo sapiens, UniProt Q8IW41)", "remaining binding": "87%"}
{"target": "Receptor tyrosine-protein kinase erbB-4 (ERBB4, Homo sapiens, UniProt Q15303)", "remaining binding": "100%"}
{"target": "Calcium/calmodulin-dependent protein kinase type II subunit delta (CAMK2D, Homo sapiens, UniProt Q13557)", "remaining binding": "100%"}
{"target": "ALK tyrosine kinase receptor (ALK, Homo sapiens, UniProt Q9UM73, C1156Y)", "remaining binding": "100%"}
{"target": "Cyclin-dependent kinase 2 (CDK2, Homo sapiens, UniProt P24941)", "remaining binding": "100%"}
{"target": "Serine/threonine-protein kinase N2 (PKN2, Homo sapiens, UniProt Q16513)", "remaining binding": "100%"}
{"target": "Homeodomain-interacting protein kinase 3 (HIPK3, Homo sapiens, UniProt Q9H422)", "remaining binding": "76%"}
{"target": "Activin receptor type-2A (ACVR2A, Homo sapiens, UniProt P27037)", "remaining binding": "100%"}
{"target": "Phosphatidylinositol 3-kinase catalytic subunit type 3 (PIK3C3, Homo sapiens, UniProt Q8NEB9)", "remaining binding": "77%"}
{"target": "Serine/threonine-protein kinase Nek7 (NEK7, Homo sapiens, UniProt Q8TDX7)", "remaining binding": "100%"}
{"target": "Mast/stem cell growth factor receptor Kit (KIT, Homo sapiens, UniProt P10721, D816H)", "remaining binding": "79%"}
{"target": "Casein kinase I isoform epsilon (CSNK1E, Homo sapiens, UniProt P49674)", "remaining binding": "100%"}
{"target": "Calcium/calmodulin-dependent protein kinase type IV (CAMK4, Homo sapiens, UniProt Q16566)", "remaining binding": "100%"}
{"target": "Tyrosine-protein kinase ABL2 (ABL2, Homo sapiens, UniProt P42684)", "remaining binding": "87%"}
{"target": "Serine/threonine-protein kinase 32A (STK32A, Homo sapiens, UniProt Q8WU08)", "remaining binding": "96%"}
{"target": "Dual specificity mitogen-activated protein kinase kinase 6 (MAP2K6, Homo sapiens, UniProt P52564)", "remaining binding": "100%"}
{"data": "Set 3", "target": "Centromere-binding protein 1, full length, N-terminal tag (CBF1, Saccharomyces cerevisiae, UniProt P17106, residues 1-351)", "method": "protein-binding microarray", "molecule type": "double-stranded DNA, one strand shown", "sample": "in vitro", "concentration": "0.8 µM", "notes": "whole 60-bp probe, no competitor", "direction": "higher = stronger binding", "constant ends, left off below": "… GTCTTGATTCGCTTGACGCTGCTG", "UniProt P17106, sequence (whole entry, looked up)": "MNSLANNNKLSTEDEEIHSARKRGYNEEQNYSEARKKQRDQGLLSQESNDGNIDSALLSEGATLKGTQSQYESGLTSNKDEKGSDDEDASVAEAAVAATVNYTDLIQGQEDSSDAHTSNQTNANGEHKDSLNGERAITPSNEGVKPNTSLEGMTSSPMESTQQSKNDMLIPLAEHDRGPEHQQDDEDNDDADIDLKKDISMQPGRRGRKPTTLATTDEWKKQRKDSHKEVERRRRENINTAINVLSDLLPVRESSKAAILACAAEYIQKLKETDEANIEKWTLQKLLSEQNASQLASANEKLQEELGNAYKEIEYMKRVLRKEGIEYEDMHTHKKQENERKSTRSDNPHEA"}
{"Strand": "CTAAGCATGTATGATCATGATGATGCAAAAATTTTC", "fluorescence intensity [a.u.]": 557}
{"Strand": "CTAGCTATCGGAGGTGGTCTGAGTTACTCGACATTC", "fluorescence intensity [a.u.]": 506}
{"Strand": "GAAATTGTACTATGTGATGTTACTGATACATCATAG", "fluorescence intensity [a.u.]": 554}
{"Strand": "GAACAATATCCAAACCAGCATCAGGAAAAGCCTTAG", "fluorescence intensity [a.u.]": 527}
{"Strand": "GAACATAACAGGCGTGTCACCAATGATTAATGGTAG", "fluorescence intensity [a.u.]": 587}
{"Strand": "GAATTCTTATTGGGTGGCGTGCCGTACAGAACGTAG", "fluorescence intensity [a.u.]": 842}
{"Strand": "CTATTAGTAGTGTGTCACCCGGATCAGCAAAATTTC", "fluorescence intensity [a.u.]": 567}
{"Strand": "GAATAAGAAATATAAAAGGTGACTTGGCTTATATAG", "fluorescence intensity [a.u.]": 514}
{"data": "Set 4", "target": "Protein kinase C iota type (PRKCI, Homo sapiens, UniProt P41743)", "observed": "enzyme activity", "mode": "inhibitor", "concentration": "0.5 µM", "reference": "control", "Construct (P41743 1-596)": "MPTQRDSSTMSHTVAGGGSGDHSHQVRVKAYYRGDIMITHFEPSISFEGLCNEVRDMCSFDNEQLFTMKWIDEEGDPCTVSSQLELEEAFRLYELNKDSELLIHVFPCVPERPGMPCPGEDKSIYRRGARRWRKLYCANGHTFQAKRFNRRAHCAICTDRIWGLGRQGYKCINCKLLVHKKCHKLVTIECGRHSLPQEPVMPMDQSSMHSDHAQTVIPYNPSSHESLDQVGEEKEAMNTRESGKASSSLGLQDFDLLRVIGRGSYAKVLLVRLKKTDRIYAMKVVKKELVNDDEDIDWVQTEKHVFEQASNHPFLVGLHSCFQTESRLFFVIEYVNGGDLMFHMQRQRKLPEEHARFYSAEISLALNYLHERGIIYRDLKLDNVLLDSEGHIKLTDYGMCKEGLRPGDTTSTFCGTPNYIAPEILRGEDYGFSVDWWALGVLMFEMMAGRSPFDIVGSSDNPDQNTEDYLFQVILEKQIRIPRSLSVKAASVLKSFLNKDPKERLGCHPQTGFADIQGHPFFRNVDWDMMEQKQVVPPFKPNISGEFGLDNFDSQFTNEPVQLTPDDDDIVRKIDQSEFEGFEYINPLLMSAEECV"}
{"SMILES": "O=C(NC(NC(=S)Nc1ccc(F)c([N+](=O)[O-])c1)C(Cl)(Cl)Cl)C(c1ccccc1)c1ccccc1 (centres unmarked)", "remaining activity [%]": 94}
{"SMILES": "Cc1cn(-c2cc(NC(=O)c3ccc(C)c(Nc4nccc(-c5cccnc5)n4)c3)cc(C(F)(F)F)c2)cn1", "remaining activity [%]": 108}
{"SMILES": "COc1cc2ncnc(Nc3ccc(O)c(Br)c3)c2cc1OC", "remaining activity [%]": 94}
{"SMILES": "O=c1cc(-c2cccc3c2Sc2ccccc2S3)oc(N2CCOCC2)c1", "remaining activity [%]": 103}
{"SMILES": "COc1cc2c(cc1OC)-c1[nH]nc(Nc3cccc(F)c3)c1C2", "remaining activity [%]": 95.5}
{"data": "Single results of other studies"}
{"Substance": "PhoQ, residues 284 288 289 292 302 303 SSLVEF", "target": "PhoP, residues 12 14 15 18 19 SYFRT (Escherichia coli, UniProt P23836)", "assay": "Sort-seq, refers to: YFP reporter", "test system": "E. coli", "setting": "PhoQ-PhoP variant library, together with: 10 µM Mg2+", "how to read": "reference: high Mg2+ state, higher = stronger signaling", "endpoint": "fold induction", "result": 3.78}
{"note": "A few entries again (set 1):"}
{"Molecule": "NARRSLNFGGSTGT", "enrichment score": -0.315}
{"Molecule": "NLEPNAEFDKRTEFIT", "enrichment score": 0.516}
